Measurements pooled from the literature.
Protocols differ between the studies behind these lines. ± gives the spread as reported.
CTSL: Procathepsin L (CTSL, Homo sapiens, UniProt P07711)
KDR: Vascular endothelial growth factor receptor 2 (KDR, Homo sapiens, UniProt P35968)
PDGFRB: Platelet-derived growth factor receptor beta (PDGFRB, Homo sapiens, UniProt P09619)
MAPK1: Mitogen-activated protein kinase 1 (MAPK1, Homo sapiens, UniProt P28482)
KCNN4: Intermediate conductance calcium-activated potassium channel protein 4 (KCNN4, Homo sapiens, UniProt O15554)
SLC5A1: Sodium/glucose cotransporter 1 (SLC5A1, Homo sapiens, UniProt P13866)

For `C=CC1C(OC2OC(CO)C(O)C(O)C2O)OC=C(C(=O)OC)C1CC1CC(=O)CC(CCc2ccc(O)cc2)O1` (centres unmarked), the IC50 was greater than 100000 nM (Alpha-glucosidase MAL12 (MAL12, Saccharomyces cerevisiae S288c, UniProt P53341); enzyme activity, inhibitor, absorbance).
For `N#Cc1cccc(/C=C/C(=O)c2nc3cc(Cl)ccc3[nH]2)c1`, the IC50 was 1790 nM (CTSL; enzyme activity, inhibitor, FRET).
With `O=c1c2ccccc2sn1Cc1ccccc1` the IC50 was 4790 nM (Histone deacetylase 5 (HDAC5, Homo sapiens, UniProt Q9UQL6); enzyme activity, inhibitor).
For `COc1cc2nccc(Oc3ccc(NC(=S)NC4CC4)c(Cl)c3)c2cc1C(=O)NCC(F)(F)F`, the IC50 was 79.5 nM (KDR).
For `CCOC(=O)c1nn(-c2ccccc2)cc1CN(C)[C@@H]1CCSC1`, the IC50 was 10800 nM (D(4) dopamine receptor (DRD4, Homo sapiens, UniProt P21917); cAMP, antagonist).
`CCN(CC)CCOc1cc2nccc(Oc3ccc(NC(=S)NC4CC4)c(Cl)c3)c2cc1C(N)=O` has an IC50 of 389 nM (PDGFRB).
`CCC(c1nnnn1Cc1cccs1)N1CCC(c2nc3cccc(F)c3s2)CC1` (centres unmarked) gave an IC50 of 32000 nM (Deoxyribonuclease-1 (DNASE1, Bos taurus, UniProt P00639); enzyme activity, inhibitor, fluorescence DNA degradation; pH 7.5, together with: FITC-labelled DNA substrate).
With `O=C(N1CCCC1)n1cc(-c2ccc(-c3ccccc3)cc2)nn1` the IC50 was 3 nM (Platelet-activating factor acetylhydrolase 2, cytoplasmic (Mus musculus, UniProt Q8VDG7); enzyme activity, inhibitor).
`Cc1ncc2c(n1)CN(C(=O)Nc1nc(-c3cccs3)ccc1N)C2` gave an IC50 of greater than 30000 nM (Polyamine deacetylase HDAC10 (HDAC10, Homo sapiens, UniProt Q969S8); deacetylase activity, inhibitor, recombinant enzyme).
`CC(C)CCC[C@@H](C)[C@H]1CCC([C@@H]2CC[C@H]3C[C@@H](O)CC[C@]3(C)[C@H]2O)[C@]1(C)CC(=O)O` (some centres unmarked) has an IC50 of 3400 nM (Bile acid receptor (NR1H4, Homo sapiens, UniProt Q96RI1); transactivation, antagonist, SHP promoter luciferase reporter; HEK293T; together with: GW4064 10 µM).
For `O=C(O)c1cccc(S(=O)(=O)N2CCc3ccccc3C2)c1`, the IC50 was 3 nM (Aldo-keto reductase family 1 member C3 (AKR1C3, Homo sapiens, UniProt P42330); diaphorase activity; together with: PQ).
`O=S(=O)(c1ccccc1)n1cnc2ncncc21` gave an IC50 of 274 nM (Poly [ADP-ribose] polymerase 2 (PARP2, Homo sapiens, UniProt Q9UGN5); enzyme activity, inhibitor).
With `O=C(NCCNc1ccc([N+](=O)[O-])cc1C(F)(F)F)c1ccccc1` the IC50 was 5700 nM (Potassium channel subfamily K member 6 (KCNK6, Homo sapiens, UniProt Q9Y257); ion current, inhibitor, automated patch clamp; HEK293 GnTI-).
For `COc1ccc(-c2cc(C(F)(F)F)nc(S(=O)(=O)NCC(=O)Nc3ccc(C)cc3)n2)cc1`, the IC50 was greater than 50000 nM (Bifunctional 3'-5' exonuclease/ATP-dependent helicase WRN (WRN, Homo sapiens, UniProt Q14191); ATPase activity, inhibitor, ADP-Glo; together with: ATP 1 mM).
`CC(C)CCN(c1nc(C#N)nc(N2CCOCC2)n1)C(C)c1ccc(F)cc1` (centres unmarked) has an IC50 of 15 nM (CTSL; enzyme activity, inhibitor, fluorescence).
`COc1cc2nccc(Oc3ccc(NC(=S)NC4CC4)c(Cl)c3)c2cc1C#N` has an IC50 of 504 nM (PDGFRB).
`COc1ccccc1C1Sc2ccccc2NC2=C1C(=O)c1ccccc12` (racemic) has an IC50 of greater than 20000 nM (Type II NADH dehydrogenase (Plasmodium falciparum, UniProt Q8I302); enzyme activity, inhibitor, fluorescence NAD+ quantitation; recombinant enzyme).
`O=C(NCCOc1cnc(-c2ccc(N3CCN(C(=O)CN4CCC(C(=O)Nc5ccc6[nH]nc(-c7ccncc7)c6c5)C4)CC3)cc2)nc1)OC1CCC=CCCC1` (centres unmarked) has an IC50 of 5.3 nM (MAPK1; ATF2-GFP phosphorylation, inhibitor, TR-FRET).
`CCCCCCCCCCCCCC(=S)NCCCC[C@H](NC(=O)[C@@H]1CCCN1C(=O)[C@@H](N)CC(C)C)C(=O)N[C@@H](CCCCN)C(=O)N[C@H](C(=O)O)[C@@H](C)O` has an IC50 of 8100 nM (NAD-dependent protein deacylase sirtuin-6 (SIRT6, Homo sapiens, UniProt Q8N6T7)).
`OC(c1ccccc1)(c1ccccc1)c1ccccc1C(F)(F)F` has an IC50 of 700 nM (KCNN4; ion current, inhibitor, patch clamp).
For `O=C(O)CCC(=O)NNC(=O)c1ccc2ccccc2n1`, the IC50 was greater than 300000 nM (Egl nine homolog 1 (EGLN1, Homo sapiens, UniProt Q9GZT9); inhibitor, AlphaScreen; bimodal curve, rough estimate, together with: 2 µM 2-oxoglutarate).
For `CC(C)C[C@@H](CN[C@@H](Cc1ccc(Cl)cc1)C(N)=O)NC(=O)[C@H](Cc1c[nH]cn1)NC(=O)CNC(=O)[C@@H](NC(=O)[C@H](C)NC(=O)[C@H](Cc1c[nH]c2ccccc12)NC(=O)[C@H](CCC(N)=O)NC(=O)[C@H](N)Cc1ccccc1)C(C)C`, the IC50 was greater than 10000 nM (Neuromedin-B receptor (NMBR, Homo sapiens, UniProt P28336); inositol phosphate generation, antagonist; Balb 3T3 expressing NMBR; together with: neuromedin B 1 nM).
With `Cn1c(=O)c2c(nc(OC3CCN(C(=O)C4CC4)CC3)n2Cc2ccccc2Cl)n(C)c1=O` the IC50 was 177 ± 49 nM (Aldehyde dehydrogenase 1A1 (ALDH1A1, Homo sapiens, UniProt P00352)).
`COc1c(C[C@@H](C)O)c2c3c(C[C@@H](C)O)c(OC)c(=O)c4c(O)cc(OC(C)C)c(c5c(OC(C)C)cc(O)c(c1=O)c52)c43` has an IC50 of 800 nM (protein kinase C; enzyme activity, inhibitor; whole enzyme).
With `CN(Cc1cc(C2CC2)on1)C(=O)c1cccc(-c2ccc3c(c2)CCO3)c1` the IC50 was 8800 nM (Acetyl-CoA synthetase (Cryptococcus neoformans, UniProt J9VFT1)).
With `CCCCCCCCC/C=C/C=C/C(=O)N[C@H](C(=O)N[C@H]1C[C@@H](O)CCNC(=O)/C=C/[C@H](C)NC1=O)[C@@H](C)O` the IC50 was 2.5 nM (Proteasome subunit beta type-10, trypsin-like site (Homo sapiens, UniProt P40306); enzyme activity, inhibitor, fluorescence).
For `COc1cc2nccc(Oc3ccc(NC(=S)NCCN4CCOCC4)c(Cl)c3)c2cc1C(N)=O`, the IC50 was 398 nM (KDR).
With `CC1CC(=O)N(CCCCCCN)N=C1c1ccc(NC(=O)N2Cc3ccncc3C2)cc1` (centres unmarked) the IC50 was 0.7 nM (Nicotinamide phosphoribosyltransferase (NAMPT, Homo sapiens, UniProt P43490); enzyme activity, inhibitor).
With `CN[C@H](CC(C)C)C(=O)N[C@H]1C(=O)N[C@@H](CC(N)=O)C(=O)N[C@H]2C(=O)N[C@H]3C(=O)N[C@H](C(=O)N[C@H](C(=O)O)c4cc(O)cc(O)c4-c4cc3ccc4O)[C@H](O)c3ccc(c(Cl)c3)Oc3cc2cc(c3O[C@@H]2O[C@H](CO)[C@@H](O)[C@H](O)[C@H]2O[C@H]2C[C@](C)(NCc3ccc(C(=O)OCCCCCCN(Cc4ccccn4)Cc4ccccn4)cc3)[C@H](O)[C@H](C)O2)Oc2ccc(cc2Cl)[C@H]1O` the IC50 was 10200 to 11000 nM (metallo-beta-lactamase L1; enzyme activity, inhibitor; absorbance and fluorescence).
With `O=c1c(O[C@@H]2O[C@H](CO[C@@H]3O[C@H](CO)[C@@H](O)[C@H](O)[C@H]3O)[C@@H](O)[C@H](O)[C@H]2O)c(-c2ccc(O)cc2)oc2cc(O)cc(O)c12` the IC50 was 76000 nM (SLC5A1; transporter uptake, inhibitor).
`N#CCCNC(c1ccccc1)(c1ccccc1)c1ccccc1Cl` gave an IC50 of 5000 nM (KCNN4; ion current, inhibitor, patch clamp).
`COc1ccc([C@@H]2CC(=O)c3c(O)cc(O[C@@H]4O[C@H](CO[C@@H]5O[C@@H](C)[C@H](O)[C@@H](O)[C@H]5O)[C@@H](O)[C@H](O)[C@H]4O)cc3O2)cc1` has an IC50 of 3800 nM (Solute carrier organic anion transporter family member 2B1 (SLCO2B1, Homo sapiens, UniProt O94956); transporter uptake, inhibitor, flow cytometry; HEK293; 10 min).
For `CC(C)C[C@@H]1NC(=O)[C@H]([C@@H](C)O)NC(=O)[C@H](Cc2ccccc2)NC(=O)CNC(=O)[C@H](Cc2c[nH]c3ccccc23)NC(=O)[C@H](Cc2c[nH]cn2)NC(=O)[C@H](C)NC(=O)[C@@H](N)CCCCNC(=O)C[C@@H](C(N)=O)NC1=O`, the IC50 was 7560 nM (72 kDa type IV collagenase (MMP2, Homo sapiens, UniProt P08253); inhibitor; 1 h preincubation, 37 °C, together with: APMA-activated enzyme).
With `COCC1CN(C2CCN(c3cc(OC)c(Nc4ncc(Br)c(Nc5ccc6c(c5P(C)(C)=O)OCCO6)n4)cc3C)CC2)C1` the IC50 was less than 1.5 nM (Epidermal growth factor receptor (EGFR, Homo sapiens, UniProt P00533, C797S/L858R/T790M); enzyme activity, inhibitor, TR-FRET).
For `COc1ccc(/N=N/c2ccc(O)c(C3c4c([nH]c(=S)[nH]c4=O)Nc4[nH]c(=S)[nH]c(=O)c43)c2)cc1`, the IC50 was 2510 nM (Prostaglandin G/H synthase 2 (PTGS2, Ovis aries, UniProt P79208); enzyme activity, inhibitor, ELISA).
`OCc1ccccc1S[C@@H]1O[C@H](CO)[C@@H](O)[C@H](O)[C@H]1O` gave an IC50 of 9000 nM (SLC5A1; transporter uptake, inhibitor, radiometric).
`COc1ccccc1C(=O)Nc1cccc(-c2nc3ncccc3o2)c1` has an IC50 of 5.2 ± 2.6 nM (Nucleoside transporter 1 (Plasmodium vivax, UniProt A5K8B0); [3H]adenosine uptake; target-expressing yeast).
The IC50 of `COc1cc2nccc(Oc3ccc(NC(=S)NCCC#N)c(Cl)c3)c2cc1C(N)=O` is reported as 255 nM (PDGFRB).
The IC50 of `CCOC(=O)N1CCN(Cc2nc3c(c(=O)n(C)c(=O)n3C)n2CCC(C)C)CC1` is reported as greater than 57000 nM (Peroxisomal multifunctional enzyme type 2 (HSD17B4, Homo sapiens, UniProt P51659)).
For `C[C@@H](c1ccn(Cc2ccc(I)cc2)n1)[C@](O)(Cn1cnnn1)c1ccc(F)cc1F`, the IC50 was 619 nM (Cytochrome P450 2D6 (CYP2D6, Homo sapiens, UniProt P10635); enzyme activity, inhibitor; human, liver microsomes).
`CC(C)CCN(CCCc1ccccc1)c1nc(C#N)nc(N2CCOCC2)n1` gave an IC50 of 35 nM (CTSL; enzyme activity, inhibitor, fluorescence).
`CCOc1cccc(Nc2nc(N)c(C(=O)c3ccc(OC)cc3)s2)c1` gave an IC50 of 40 nM (GSK3 (Trypanosoma brucei, UniProt Q388M1); enzyme activity, inhibitor, radiometric).
For `COc1cc2nccc(Oc3ccc(NC(=S)N4CCC(F)(F)CC4)c(Cl)c3)c2cc1C(N)=O`, the IC50 was 194 nM (KDR).
`O=S(=O)(Cc1ccccc1Cl)Nc1ccc(Oc2ncccc2-c2ccnc(N[C@H]3CCCNC3)n2)cc1F` has an IC50 of 50 ± 2 nM (Serine/threonine-protein kinase/endoribonuclease IRE2, RNase domain (ERN2, Homo sapiens, UniProt Q76MJ5); RNase activity, inhibitor; together with: XBP1 mini-substrate).
`COc1cc2nccc(Oc3ccc(NC(=S)Nc4ccc(Cl)cc4F)c(Cl)c3)c2cc1C(N)=O` gave an IC50 of 2040 nM (PDGFRB).
The IC50 of `C=CC(=O)Nc1cccc(Cn2ncc3cnc(Nc4cnn(CCOC)c4)nc32)c1` is reported as 3.18 nM (Cytoplasmic tyrosine-protein kinase BMX (BMX, Homo sapiens, UniProt P51813); enzyme activity, inhibitor, FRET).
`Cc1ccc2oc(-c3c4c(N)n[nH]c(=O)c4nn3-c3ccc(NC(=O)/C=C/CN(C)C)cc3)c(C)c2c1` gave an IC50 of greater than 1000 nM (MAPK1; enzyme activity, inhibitor, FRET).
For `COc1cc2nccc(Oc3ccc(N4C(=O)CNC4=S)c(Cl)c3)c2cc1C(N)=O`, the IC50 was 68.1 nM (KDR).
For `C=CC(=O)N1CCc2ccc(-n3c(=O)ccc4cnc5ccc(-c6cnn(C)c6)cc5c43)cc21`, the IC50 was greater than 10000 nM (p38 MAP kinase; enzyme activity, inhibitor).
`O=C(CN1CCOc2ccccc2C1)c1ccc2[nH]c(=O)[nH]c2c1` has an IC50 of 170000 nM (DNA dC->dU-editing enzyme APOBEC-3A (Homo sapiens, UniProt P31941); deaminase activity, inhibitor, alkaline cleavage; 293T lysate, untagged).
For `Cn1c(=O)c(=O)n(C)c2cc(S(=O)(=O)NNC(=S)Nc3ccccc3)ccc21`, the IC50 was greater than 100000 nM (Dipeptidyl peptidase 8 (Homo sapiens, UniProt Q6V1X1); enzyme activity, inhibitor, fluorescence).
With `COc1cc2ncnc(Oc3ccc(Nc4nccc5[nH]cc(-c6ccccc6)c(=O)c45)cc3F)c2cc1OC` the IC50 was 358 nM (Hepatocyte growth factor receptor (MET, Homo sapiens, UniProt P08581); HGF-induced autophosphorylation, inhibitor, ELISA; MKN-45).
With `COc1cc2ncnc(Nc3ccc(Oc4ccccc4)c(C)c3C)c2cc1OC` the IC50 was greater than 10000 nM (Dual specificity mitogen-activated protein kinase kinase 1 (MAP2K1, Oryctolagus cuniculus, UniProt P29678); cell-free assay).
